{"data": "Results collected from several papers", "note": "A part holds a random share of what one study measured."}
{"data": "Series 1", "target": "Histone acetyltransferase KAT6A, both winged helices, GST fusion (KAT6A, Homo sapiens, UniProt Q92794, residues 1-181)", "method": "protein binding microarray", "form": "double-stranded DNA, one strand shown", "medium": "in vitro", "tested at": "not given", "notes": "8-mer, flanks averaged, mean of 2 arrays, mostly near background", "relative to": "not given", "direction": "higher = stronger binding", "Target sequence (chain)": "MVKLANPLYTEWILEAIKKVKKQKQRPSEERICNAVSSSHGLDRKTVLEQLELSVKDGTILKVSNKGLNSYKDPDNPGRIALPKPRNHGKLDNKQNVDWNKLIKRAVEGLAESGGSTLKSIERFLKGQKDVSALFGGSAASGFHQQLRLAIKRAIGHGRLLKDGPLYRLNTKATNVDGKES"}
{"Oligonucleotide": "AGAATCAG", "E-score": -0.0848}
{"Oligonucleotide": "AAGATTGT", "E-score": -0.211}
{"Oligonucleotide": "AAAGAATG", "E-score": -0.0813}
{"Oligonucleotide": "CTACGTAA", "E-score": 0.0645}
{"Oligonucleotide": "CGTAAACA", "E-score": 0.145}
{"Oligonucleotide": "ATAAAGCC", "E-score": 0.0599}
{"Oligonucleotide": "AAGAATAA", "E-score": -0.0916}
{"Oligonucleotide": "ATCAAGTG", "E-score": -0.132}
{"Oligonucleotide": "GGAAGGCA", "E-score": -0.0613}
{"Oligonucleotide": "AGATAATG", "E-score": -0.167}
{"Oligonucleotide": "ACCACCGG", "E-score": 0.186}
{"Oligonucleotide": "AACTAAAC", "E-score": -0.0754}
{"Oligonucleotide": "CAGAGATG", "E-score": -0.131}
{"data": "Series 2", "target": "UBE2T UBC core domain (UniProt Q9NPD8)", "method": "yeast two-hybrid", "medium": "yeast", "notes": "mostly zero background", "relative to": "not given", "direction": "higher = stronger interaction", "B1": "RNF32 RING domain (UniProt Q9H0A6); chain VQALRRETHECSICLAPLSAAGGQRVGAGRRSREMALLSCSHVFHHACLLALEEFSVGDRPPFHACPLCRSCYQKKILEC", "B2": "RNF130 RING domain (UniProt Q86XS8); chain DKETDPDFDHCAVCIESYKQNDVVRILPCKHVFHKSCVDPWLSEHCTCPMCKLNILKALGIV", "B3": "ARIH1 RING domain (UniProt Q9Y4X5); chain NTRSSAQDMPCQICYLNYPNSYFTGLECGHKFCMQCWSEYLTTKIMEEGMGQTISCPAHGCDILVDDNTVM", "Construct (chain)": "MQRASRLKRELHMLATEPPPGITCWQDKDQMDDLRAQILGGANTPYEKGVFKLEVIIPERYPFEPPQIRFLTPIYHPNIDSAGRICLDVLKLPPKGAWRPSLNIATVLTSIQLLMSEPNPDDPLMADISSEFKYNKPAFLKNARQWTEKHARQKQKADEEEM"}
{"Sequence": "KITELNPHLMCALCGGYFIDATTIVECLHSFCKTCIVRYLETNKYCPMCDVQVHKTRPLL (PCGF2 RING domain (UniProt P35227))", "lacZ reporter activity": 7210}
{"Sequence": "MEEMEEELKCPVCGSFYREPIILPCSHNLCQACARNILVQTPESESPQSHRAAGSGVSDY (TRIM9 RING domain (UniProt Q9C026))", "lacZ reporter activity": 0}
{"Sequence": "B1 (RNF32 RING domain)", "lacZ reporter activity": 0}
{"Sequence": "FLSKVEETFQCICCQELVFRPITTVCQHNVCKDCLDRSFRAQVFSCPACRYDLGRSYAMQ (UHRF1 RING domain (UniProt Q96T88))", "lacZ reporter activity": 0}
{"Sequence": "B2 (RNF130 RING domain)", "lacZ reporter activity": 0}
{"Sequence": "B3 (ARIH1 RING domain)", "lacZ reporter activity": 0}
{"data": "Series 3", "target": "RING finger protein unkempt homolog, zinc fingers 1-6, GST-SBP tag (UNK, Homo sapiens, UniProt Q9C0B0, residues 30-357)", "method": "RNA Bind-n-Seq", "form": "RNA", "medium": "in vitro", "tested at": "not given", "notes": "RNA with constant flanks, human and mouse sites, ends assumed", "relative to": "input RNA pool", "direction": "higher = stronger binding", "chain of UniProt Q9C0B0 (30-357, looked up)": "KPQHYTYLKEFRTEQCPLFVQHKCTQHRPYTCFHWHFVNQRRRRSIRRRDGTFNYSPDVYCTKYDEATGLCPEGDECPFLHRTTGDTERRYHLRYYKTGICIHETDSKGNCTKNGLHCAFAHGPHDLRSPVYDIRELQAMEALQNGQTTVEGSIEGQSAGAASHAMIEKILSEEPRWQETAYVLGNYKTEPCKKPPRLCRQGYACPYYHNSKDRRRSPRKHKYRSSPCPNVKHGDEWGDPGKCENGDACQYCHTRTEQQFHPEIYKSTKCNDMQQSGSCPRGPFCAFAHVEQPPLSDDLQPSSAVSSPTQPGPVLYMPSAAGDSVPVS"}
{"Oligonucleotide": "GGGAGUUCUACAGUCCGACGAUCGGAGAGUCUCAGCCAGUGAAAAUGUUUGAUCGCCAUUCUAGCCUUGCAGGGUGCCAGAUUAUCAAUUACCGUACAGAUGCAAAACAAAAGUGGUUACUUCUGACUGGUAUAUCUGCACAGCAACAGAGGAUUGAGCAUCA", "bound/input enrichment": "0.315 ratio"}
{"Oligonucleotide": "GGGAGUUCUACAGUCCGACGAUCAAUAAGAUUCAAAGUGAACUGGAUGGAUUACAGUCAGACAAUGAAAUUCUCAAAGCAGCUGUUGAACAUCACAAAGUGCUCUUAGUAGAAAAGGAUCGUGAAUUAAUACGUAAAGUACAACAACAGAGGAUUGAGCAUCA", "bound/input enrichment": "0.422 ratio"}
{"Oligonucleotide": "GGGAGUUCUACAGUCCGACGAUCCGGGGGGCUUUCUGUGAAGUAAGACCAGAUGAUAAAAGGAUUCUGGAAUUUUACAGCAAGUUAGGCUGUUUUGAAAUUGCAAAAAUGGAAGGAUUUCCAAAGGAUGUGGUUAUACUUGGUCAACAGAGGAUUGAGCAUCA", "bound/input enrichment": "0.788 ratio"}
{"Oligonucleotide": "GGGAGUUCUACAGUCCGACGAUCAACUCCUGUGAUGAGCACAUGGAGCUUGAUGACCUUCCUGAACUUCAGGCUGUUCAAAGUGACCCUACCCAAUCUGCCAUAUACCAGCUAAGUUCAGAUGUAUCUCAUCAAGAAUAUCCACAACAGAGGAUUGAGCAUCA", "bound/input enrichment": "0.147 ratio"}
{"data": "Series 4", "target": "Protein C-ets-1 (ETS1, Homo sapiens, UniProt P14921, residues 1-441, full length assumed)", "method": "protein-binding microarray", "form": "double-stranded DNA, one strand shown", "medium": "in vitro", "tested at": "not given", "notes": "k-mer, scored over probes, only values ≥0.25", "direction": "higher = stronger binding", "Construct (chain)": "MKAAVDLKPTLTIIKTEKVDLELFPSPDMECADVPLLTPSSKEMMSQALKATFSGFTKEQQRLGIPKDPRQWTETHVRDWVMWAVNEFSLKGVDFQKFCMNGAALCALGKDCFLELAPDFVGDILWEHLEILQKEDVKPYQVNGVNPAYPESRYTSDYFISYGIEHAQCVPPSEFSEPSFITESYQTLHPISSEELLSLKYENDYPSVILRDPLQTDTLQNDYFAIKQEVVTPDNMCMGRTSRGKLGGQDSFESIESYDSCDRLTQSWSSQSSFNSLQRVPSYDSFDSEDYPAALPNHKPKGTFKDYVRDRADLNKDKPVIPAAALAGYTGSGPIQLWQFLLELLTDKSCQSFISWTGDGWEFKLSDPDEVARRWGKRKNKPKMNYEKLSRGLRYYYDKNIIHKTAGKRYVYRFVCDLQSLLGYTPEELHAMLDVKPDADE"}
{"Oligonucleotide": "ATCCTATG", "E-score": 0.276}
{"Oligonucleotide": "ACGTCCGG", "E-score": 0.479}
{"Oligonucleotide": "CTACGTCC", "E-score": 0.267}
{"Oligonucleotide": "ACGCTTCC", "E-score": 0.41}
{"Oligonucleotide": "TCACAGGA", "E-score": 0.28}
{"Oligonucleotide": "GGGGAGGA", "E-score": 0.3}
{"Oligonucleotide": "AGAGGCGG", "E-score": 0.258}
{"Oligonucleotide": "CTTCCTAC", "E-score": 0.389}
{"Oligonucleotide": "CCCCGGTC", "E-score": 0.339}
{"Oligonucleotide": "ACCGGTAT", "E-score": 0.288}
{"Oligonucleotide": "ACCTCCGC", "E-score": 0.256}
{"Oligonucleotide": "CTACAGGA", "E-score": 0.362}
{"Oligonucleotide": "ATCCTCTA", "E-score": 0.274}
{"data": "Series 5", "target": "Hepatocyte nuclear factor 3-alpha (Foxa1, Mus musculus, UniProt P35582, residues 1-468, full length assumed)", "method": "EMSA with sequencing", "form": "double-stranded DNA, one strand shown", "medium": "in vitro", "tested at": "10 and 20 nM", "notes": "whole designed probe, mean of two concentrations, ends assumed", "relative to": "negative control set to 0", "direction": "higher = stronger binding", "Residues (chain)": "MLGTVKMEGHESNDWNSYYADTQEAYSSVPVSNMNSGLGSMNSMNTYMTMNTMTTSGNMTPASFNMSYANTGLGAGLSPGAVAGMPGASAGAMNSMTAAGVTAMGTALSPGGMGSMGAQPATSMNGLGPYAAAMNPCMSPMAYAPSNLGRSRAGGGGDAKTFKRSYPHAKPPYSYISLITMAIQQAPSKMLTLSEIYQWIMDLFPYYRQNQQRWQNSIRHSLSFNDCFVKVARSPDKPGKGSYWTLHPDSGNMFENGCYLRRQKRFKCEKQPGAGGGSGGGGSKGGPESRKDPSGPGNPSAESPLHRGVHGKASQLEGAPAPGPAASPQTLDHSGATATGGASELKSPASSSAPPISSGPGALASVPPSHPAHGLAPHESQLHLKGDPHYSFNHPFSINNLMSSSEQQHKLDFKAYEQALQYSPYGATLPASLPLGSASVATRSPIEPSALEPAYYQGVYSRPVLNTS"}
{"Oligonucleotide": "GTGAGCGGTGCCCATTGATGGGGAACGAAATACTTCATATAAGCCAGAAAAAGATAATTATTTTAATGAATACAATTGAAAAGCAGTTCAATTAATTATTATTTGGAGATGATATCTTTGTTTACTTAGAAAGACAGCAAAAGCAACTGAAAGGTGATTTTAGAAATCTATTCAGGTGGGTAGGGAAAATTCTCAGATGACCCTCAGGTTCCCACTTCATTTCACTGGGATCGTGGGGAC", "normalised bound fraction [ratio]": 0.42}
{"Oligonucleotide": "GTGAGCGGTGCCCATTGATGGGGAACCTAGTTCCAGTCTTAGCATGACAATTTCTTCCTGCAACGTACTATTTTCATGCAAGAGGTCTTTTTCTTTCTTATAACTAAGAGAAAGCTAAGTAAACAAAGGGAACTTTTAGTTAGCACTCAATAGATTGATATACCATGATTTCTTCTGAAATTAAAAAATAACATCTGTATTTGTATAATGAAAGAATCCTTTCACTGGGATCGTGGGGAC", "normalised bound fraction [ratio]": 0.515}
{"Oligonucleotide": "GTGAGCGGTGCCCATTGATGGGGAACCCTTGTATTCTTCAGATCTCATTTTCCCCCAAATTTCTGCAGTGGTTGGCTTCCATTTCAGCATCAGTCACGAAATCTTGAAGGTCAGACACAGTAATCTGGGAAGGACATAAAATTAAGTGATTTGGGCGTAGTTTTGAGTCTCACAACTTTAACAGGGATGAGTCATACATTAAAGTATGTCGAAATAAATTTTCACTGGGATCGTGGGGAC", "normalised bound fraction [ratio]": -0.0119}
{"Oligonucleotide": "GTGAGCGGTGCCCATTGATGGGGAACCATCTCATTAAAACTTGGCAAATCTTTGGATCTGCTTAGAGACACTGAATGTATATAGAAGAATAACTATTATTATTTATGCTTATAAAATGTTTGTTTACATTGTTTTTCTGCCTTTCTATAACCATCCTGTTGTCTTGGTGACACTGGTACTATTCCAAAAGGTTTTGCCCAACTCATGTAACTAATAAAGTTTCACTGGGATCGTGGGGAC", "normalised bound fraction [ratio]": 0.463}
{"data": "Series 6", "target": "Centromere-binding protein 1, full length, His-tagged (CBF1, Saccharomyces cerevisiae, UniProt P17106, residues 1-351)", "method": "competition protein-binding microarray", "form": "double-stranded DNA, one strand shown", "medium": "in vitro", "tested at": "2 µM", "notes": "whole 60-bp probe, lowest competitor level", "together with": "Pho4 competitor, 0.05 µM", "direction": "higher = stronger binding", "chain of UniProt P17106 (whole entry, looked up)": "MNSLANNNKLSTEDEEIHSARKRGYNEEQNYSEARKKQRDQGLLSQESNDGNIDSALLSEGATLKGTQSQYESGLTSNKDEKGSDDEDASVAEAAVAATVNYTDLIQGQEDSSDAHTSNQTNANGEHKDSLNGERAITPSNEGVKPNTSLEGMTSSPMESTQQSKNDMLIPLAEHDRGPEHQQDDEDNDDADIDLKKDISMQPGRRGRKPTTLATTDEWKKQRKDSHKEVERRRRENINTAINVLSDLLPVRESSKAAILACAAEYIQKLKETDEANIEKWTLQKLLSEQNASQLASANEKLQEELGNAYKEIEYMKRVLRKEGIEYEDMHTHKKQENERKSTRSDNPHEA"}
{"Oligonucleotide": "TCTGTGGGTAAATGTCTCGTGCAAAAAGACAGGCTAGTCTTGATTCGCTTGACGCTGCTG", "fluorescence intensity": "216 a.u."}
{"Oligonucleotide": "TCAAAAACGGACATTACTTGCCAGACGCGAATGATAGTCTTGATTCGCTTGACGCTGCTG", "fluorescence intensity": "68.4 a.u."}
{"Oligonucleotide": "TTGCGGACGGACCATCACGCAAGTTTTTTAACGCGAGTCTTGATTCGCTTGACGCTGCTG", "fluorescence intensity": "74 a.u."}
{"Oligonucleotide": "GCTCTTGCAGCAGTTTCCGTGGGTAGGACCAAGGTCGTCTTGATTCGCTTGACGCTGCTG", "fluorescence intensity": "56.1 a.u."}
{"Oligonucleotide": "TTTACCCCGGTGCTATTCGTGACGGTAACTATGGAAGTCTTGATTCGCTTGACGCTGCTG", "fluorescence intensity": "67 a.u."}
{"Oligonucleotide": "CTTTCCCGATCTTGAGCTGTGGGTGTAGCACATTTGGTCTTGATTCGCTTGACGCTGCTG", "fluorescence intensity": "58.9 a.u."}
{"Oligonucleotide": "CTAACGAAGGTTTGTCACCTTACTTACAAGCCAAGTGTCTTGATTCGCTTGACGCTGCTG", "fluorescence intensity": "77.8 a.u."}
{"Oligonucleotide": "AGCTGCCGGCTCGGTCAGGTGGACGAAACAAAAAAGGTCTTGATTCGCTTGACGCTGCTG", "fluorescence intensity": "497 a.u."}
{"Oligonucleotide": "GTCGTATTATCGAGTCACGTGCTTTATTCCATGGCGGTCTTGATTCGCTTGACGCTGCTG", "fluorescence intensity": "14000 a.u."}
{"Oligonucleotide": "AAAGCGGTAATTTGACGTGTGGGTGCAGATATCTATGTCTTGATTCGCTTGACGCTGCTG", "fluorescence intensity": "95.8 a.u."}
{"Oligonucleotide": "AAATTACTAAGTTGTGACGTGGGTGACGCCGTATGAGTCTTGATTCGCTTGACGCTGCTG", "fluorescence intensity": "76.6 a.u."}
{"Oligonucleotide": "GTAACGATTTACCATCACGTGGATTGTGATATAATTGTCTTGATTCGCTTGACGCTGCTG", "fluorescence intensity": "3220 a.u."}
{"Oligonucleotide": "AAATTACTAAGTTGCGCCGTGGGTGACGCCGTATGAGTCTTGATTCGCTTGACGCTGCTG", "fluorescence intensity": "66.1 a.u."}
